# Experimental data from different studies.
# Numbered parts are unrelated; each lists some results of a single study.

# Series 1
# Target: Histone acetyltransferase KAT6A, winged helix 1, GST fusion (KAT6A, Homo sapiens, UniProt Q92794, residues 1-85)
# Technique: protein binding microarray
# Form: double-stranded DNA, one strand shown
# Sample: in vitro
# Concentration: not given
# Setting: 8-mer, flanks averaged, mean of 2 arrays, mostly near background
# Relative to: not given
# Reading: higher = stronger binding
# Residues (chain): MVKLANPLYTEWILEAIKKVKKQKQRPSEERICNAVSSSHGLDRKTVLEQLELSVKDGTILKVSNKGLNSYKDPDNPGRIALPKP
Strand,E-score
CCGGTATC,0.29
CGACTTCA,0.0201
CTTGCGCA,0.29
GTTTCGTA,-0.0797
ACTTTCGA,-0.0372
GTGAAAAC,0.047
CAAACATA,-0.2
ATGAGTGC,-0.0168
AGCACAAT,-0.212
GGCGCCAA,0.222
AGAGACGC,0.193
AAGAAGCG,0.166
ACATGTGG,-0.118
ATGAGTGG,-0.186
ACAAGCAG,-0.269
GACGAGGA,-0.243
TCATGCGA,0.0302
TTGAGCAA,-0.271
AACCGAGG,-0.124
GGTCCGAA,0.125
ATGATCCG,0.213
CTGAGCCC,-0.0388
CAGTCGAG,-0.14
CTACGATC,0.0112
AGAGCAAG,-0.12

# Series 2
# Target: RNA binding protein fox-1 homolog 2, RRM domain, GST-SBP tag (RBFOX2, Homo sapiens, UniProt O43251-10, residues 100-194)
# Technique: RNA Bind-n-Seq
# Form: RNA
# Sample: in vitro
# Concentration: 365 nM
# Setting: natural RNA segment, single round, ends assumed
# Relative to: no-protein control
# Reading: higher = stronger binding
# Target sequence (chain): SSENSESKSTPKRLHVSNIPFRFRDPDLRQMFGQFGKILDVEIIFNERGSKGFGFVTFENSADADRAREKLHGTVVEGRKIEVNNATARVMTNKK
Strand,RBNS enrichment (R)
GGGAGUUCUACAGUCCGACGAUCUCCCCACAGCCUCCCCAGAUAGCUGUGUGCCUGUGCGCUACUGCUGUGCCAUUUUCCCAACUUGGCGUUUCACUAAAUGCAGCUGAUCUCUCUCUCUGUGCACUCGUGAUUGGAAUUCUCGGGUGCCAA,0.96
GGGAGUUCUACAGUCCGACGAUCAAAACGUACUCAGCAAAAAAAAAAAAAAAAAAAAAAAAAAAAAAAAAUUAACACAGGAUAAUUAGUGUCACCGUUUAUUCCAAACUAGGCCAGCUGGGUUUCCAGCUUUUUGGAAUUCUCGGGUGCCAA,2.1
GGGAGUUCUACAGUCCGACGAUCGAGCCUCUUUAGUCUUCCCUGAAGCUGGCUUUCUAUGGUCAAGCUAUAAUUCUUUGGUGAAUAGGUAUGCCUAGGAACAACUGGUGGUUAGUCUGUGUCCUGUGUGGAACUGGAAUUCUCGGGUGCCAA,0.43
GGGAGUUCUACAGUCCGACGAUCUAGAAUAGGACUGGUUUUGUUUACCUCACCUAUGAGGUUGGCAGUAGCUCCCAACCCAUUUCACAAGAGGAGGUUUGACCAUUACGCUCUCAGCUAUUCCUGCAGCCAUGUGGAAUUCUCGGGUGCCAA,0.256
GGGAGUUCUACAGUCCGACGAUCAGGCUUCAAGCUGCUAAACACCUUCGAGGGCAGUGGCCUCAUCAGUCUGCCAGGGAGACAAGUACACACCUUGACUCUCAAGUUGGCAGCCCAGCCUGAAGUAGAGCUCUUGGAAUUCUCGGGUGCCAA,0.352
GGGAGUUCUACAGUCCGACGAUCUUAGAGACUCCCCUUGGCUCCCAGUCACCAUAUCCAGUGUUGUGUAAAGAGACUGGCCAACAGGACCAACCAAGCACCUUACCUCUCCCAUACAAGAUGACCCUCUGAGCUGGAAUUCUCGGGUGCCAA,0.335
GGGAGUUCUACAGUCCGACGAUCGUGGCUGCGGGCGUCUUGGUUGAAUCUUUUGCUACAAACCAUGUUUGCGUUUGAGCUCUCCAGGAUUUUACAUUUUUGGGUAACCUCAGUGAUUCCCAUUGGUGUAGGAAUGGAAUUCUCGGGUGCCAA,2.49
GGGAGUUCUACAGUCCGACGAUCUAUAACCACGACUCUGGUGGGGAAAACCGUUUUUUAAAGGACACACACACACACAGCGAUGCAUCUCUCUCUAAAGCUCAGCCACGGCUGCGGCAAGGUCCCAGCGGUCGUGGAAUUCUCGGGUGCCAA,0.865
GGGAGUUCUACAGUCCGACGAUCUCUUAACAGAAAUAUUUUUAAAAAUGAAAAAGUACUCAAAAGUGAGAAGAGUUAACUUGUCAAAGCAGAAUGGUUCUCUUUGACCCACUCUGGUCUAUUGUGUAAAUAUUUGGAAUUCUCGGGUGCCAA,0.843
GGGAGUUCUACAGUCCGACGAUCCCAAUGCUGUAAAUAUGGGGAUAGUCUGGGUCAGGCCAAUCACUUCCUCUCUCACCCAUUUCGCUUCCAAGACCAUUUGUAGUGAGCGGGUGGAUGCUGUGCUACGUGUGUGGAAUUCUCGGGUGCCAA,0.651
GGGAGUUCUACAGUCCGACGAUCCUGUAAACCUUUGUUGCCGCCGCAGGAAGCUGAGGCCAGCUUGUGUGUGAGCACUGGAGUGUCCAGAGCCCUGCACACUCGGGGUGGGGGGCGGGGUACUCUCCCUGUCGUGGAAUUCUCGGGUGCCAA,0.19
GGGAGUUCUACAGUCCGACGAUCCCCAAAGACACGGGUAUUCCAGACCCGGUCUGCCUCCCUACCAGCCUUCUUAGGCUCUGUCGUGUGACUUUUCAGAUUAUAAAUGCCACAGCACGUGCUGUUUGAGAAGAUGGAAUUCUCGGGUGCCAA,0.64

# Series 3
# Target: Interferon regulatory factor 3, full length, phosphomimetic (IRF3, Homo sapiens, UniProt Q14653, residues 1-427, S386D/S396D/S398D/S402D/T404D/S405D)
# Sequence of UniProt Q14653 (whole entry, unmodified, looked up): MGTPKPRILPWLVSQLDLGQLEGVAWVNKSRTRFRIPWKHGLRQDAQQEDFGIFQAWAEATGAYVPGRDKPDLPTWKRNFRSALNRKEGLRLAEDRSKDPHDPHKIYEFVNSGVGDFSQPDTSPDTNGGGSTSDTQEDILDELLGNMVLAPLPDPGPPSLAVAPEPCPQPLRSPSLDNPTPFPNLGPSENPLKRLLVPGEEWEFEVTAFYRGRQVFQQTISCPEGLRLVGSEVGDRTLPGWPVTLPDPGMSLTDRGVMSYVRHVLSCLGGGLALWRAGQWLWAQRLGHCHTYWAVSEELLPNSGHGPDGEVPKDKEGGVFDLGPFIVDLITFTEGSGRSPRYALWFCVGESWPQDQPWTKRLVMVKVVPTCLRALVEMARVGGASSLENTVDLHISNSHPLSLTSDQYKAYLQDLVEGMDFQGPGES
# Technique: protein-binding microarray
# Form: double-stranded DNA, one strand shown
# Sample: in vitro
# Concentration: 2540 nM top
# Setting: 60-bp whole probe
# With: salmon DNA 0.4 mg/ml
# Relative to: random background probes
# Reading: higher = stronger binding
# Constant ends, left off below: GCCTAGCAC … GTCTTGATTCGCTTGACGCTGCTG
Strand,fitted relative affinity
GACGGTATCGGACTGGGTACGTGCTAG,1.64 z-score
GACGGACTGCTTCACCTGACGTGCTAG,-0.425 z-score
TCAAATTGTCTTTTCACACTGTGCTAG,0.974 z-score
TTAGGTTTCCTTCTCCTTTCGTGCTAG,10.2 z-score
GACGGCATCGGTCTCGGGACGTGCTAG,-0.414 z-score
TGCCTTTTGCTTTACTGATGGTGCTAG,0.852 z-score
GACGGTATCGACACTGGCGACGTGCTA,0.67 z-score
TAAGGTTTCCAATCAGCCCCGTGCTAG,5.48 z-score
TTAGGGATCGACTATCGGTTAGTGCTA,-0.149 z-score
GACGGTTTCCGGTTTCGGGACGTGCTA,5.76 z-score
AAGACTTTCTTTCAAATGAAGTGCTAG,0.894 z-score
TTAGATCTCAGTCTCGACTAGTGCTAG,0.528 z-score
TTAGACCTGAGACTGGATTAGTGCTAG,-0.767 z-score
GACCATTTCAGTATCGAGACGTGCTAG,2.62 z-score
TTAGGTTTCGGTTTCGATTAGTGCTAG,11.8 z-score
TCACATCTGCAAGATCCAACTGTGCTA,0.713 z-score
TACGATATCAGACTGGAGACGTGCTAG,0.0596 z-score
TTAGATTGCGGGTTTCGATTAGTGCTA,2 z-score
TTAGGTATCGACACTGGGATAGTGCTA,0.334 z-score
TTAGTTTCCGGTTTCGGTTAGTGCTAG,7.9 z-score

# Series 4
# Target: RING finger protein unkempt homolog, zinc fingers 1-6, GST-SBP tag (UNK, Homo sapiens, UniProt Q9C0B0, residues 30-357)
# Technique: RNA Bind-n-Seq
# Form: RNA
# Sample: in vitro
# Concentration: not given
# Setting: RNA with constant flanks, ends assumed
# Relative to: input RNA pool
# Reading: higher = stronger binding
# Target sequence (chain): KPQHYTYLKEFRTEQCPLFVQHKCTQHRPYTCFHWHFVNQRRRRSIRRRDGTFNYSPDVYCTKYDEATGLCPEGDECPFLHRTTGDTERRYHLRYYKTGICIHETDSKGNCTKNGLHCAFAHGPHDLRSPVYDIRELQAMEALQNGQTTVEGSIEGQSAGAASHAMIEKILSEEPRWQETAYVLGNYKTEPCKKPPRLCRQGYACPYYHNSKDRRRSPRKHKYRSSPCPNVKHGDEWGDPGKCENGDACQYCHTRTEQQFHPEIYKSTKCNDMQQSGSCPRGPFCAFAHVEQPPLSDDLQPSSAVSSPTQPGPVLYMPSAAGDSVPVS
Strand,bound/input enrichment [ratio]
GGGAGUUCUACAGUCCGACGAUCCACAGAGGAGAUCUGCUGUUCCUCACGAAUUUCCGGGAGGACCCCAUCAGAGCUGGUGAAACCGUUGUUUUUAAGGUUGAAGGAAGAGACAUUCCGAUAGUUCACAGAGUAAUCAAGGUUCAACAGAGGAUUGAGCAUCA,0.286
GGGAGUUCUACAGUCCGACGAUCUUCACCGAAGUUGCAAUUGGCCCAUCCGUGCUCAAUGCUGCCAGAGAUGAUAUUAGCAAGCUCCGGAAUACACUUCGCUUUCUUUUGGGAAAUGUGGCUGAUUUCAACCCAGAAACAGAUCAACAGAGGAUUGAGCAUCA,0.187
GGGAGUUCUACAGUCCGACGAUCUGUGUGUGUGUGAGAGAGAGAGAGAGAGAGAGAGAGAGAGAGAGAGAGAGAGAUCUACCCAUCCGAAUUGAUUUAGGUGCCCAUUGCAUCUUUUGUACUAUGGAGUUGUUUACAGUAAGCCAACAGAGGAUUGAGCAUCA,2.37
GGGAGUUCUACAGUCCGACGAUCAUUAUAAGAGAAACAGAAAAUGAUGAUCUUACAAAUGUAAUUCAGAAAAUGAUCUGUGAAUACCGUGAAGAAGUUACUCCUAUUGCUGUAGAAAUGACACAACAUCUGGCAAUGACAUUUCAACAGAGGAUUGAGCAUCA,0.105
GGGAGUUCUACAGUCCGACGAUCCAAAAGAUCCUGGCUAACUGUUCUUCUCCCUACCAGGUAGACCUGUUUGGUAUAGCAGAUUCCGCACAUUUACUAUUGUUCAAGGAACACCUACAGGUCUUCUGGGAUGGGUCCUUCUGGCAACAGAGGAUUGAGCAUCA,0.0577
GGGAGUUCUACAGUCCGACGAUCGGCUGCUGAUUGUGUUCUAAGGGUCGGAGUGGGGUCGACGUUUGCUCUACCGGAACAGCUCCGCUCAUUCCUCCCUUUCCAUUACCUGUGGCGCGGAGAGUUGGGGCGGCGGCUGCGUCACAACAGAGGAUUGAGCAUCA,0.242
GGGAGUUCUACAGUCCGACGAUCUUCCCUGGAGAGUUCAUGAAGAGCUGGAGUGAUUGUCUCAACAAGGAGGGCUUUGACAAAGCCGACAUCAGCGCUGUUGUGGCAUACACCAUUGCUGUGAAAGAGGACGGUGAGCUCAACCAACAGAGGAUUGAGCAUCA,0.104
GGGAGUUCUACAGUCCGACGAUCCUCUCUCCAUACCAUCAGUUUCUCAGUUCCAGAAGUUAUACCUUUAUUUUGAGCUGUGUACCGGCCGAAUAAAAAAUUCCUUUCAUAUCGUUAUUGUACAAAAAGUAAAGAGUAUCCUAACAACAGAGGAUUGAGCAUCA,0.346
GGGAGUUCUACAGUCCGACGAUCGGGUCAGCUGCCGCCACUUCUAAUCCUCAUCAUGACAACGUCAGGUAUGGCAUUUCAAACCCCGAUGCAGCCAUUGAAGGAGCUUCAGAUGACAUGACUGUGGUAGAUGCAGCUUCAUUACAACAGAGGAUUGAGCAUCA,0.122
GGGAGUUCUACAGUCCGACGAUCGACUUUUAAUAAUGUUUUUGAAUUUCGUAUUCUUUCAUUCCACUGUGUAAAGUGCCCGACAUUUUCCAAUUUAAAAUUUUGCUUUUUAUCCUGGCACUGGCAAAAAGAACUGUGAAAGUGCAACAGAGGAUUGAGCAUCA,0.475
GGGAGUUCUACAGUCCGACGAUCUAGGAGUGCAGCCAGAUGGUUUAGACAAAUAACCUCUGCCUGCCAGCCGUUGGGGUGAUGAUCCGAAUGUUAUUGAAGAUAGUGGUUAUGGUUGGGGCUUAUAAUGCCGACUGCAUUUGACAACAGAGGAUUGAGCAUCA,0.893

# Excerpt of the above (series 4):
Strand,bound/input enrichment [ratio]
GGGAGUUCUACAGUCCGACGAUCGGCUGCUGAUUGUGUUCUAAGGGUCGGAGUGGGGUCGACGUUUGCUCUACCGGAACAGCUCCGCUCAUUCCUCCCUUUCCAUUACCUGUGGCGCGGAGAGUUGGGGCGGCGGCUGCGUCACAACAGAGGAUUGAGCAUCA,0.242
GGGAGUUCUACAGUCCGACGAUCUGUGUGUGUGUGAGAGAGAGAGAGAGAGAGAGAGAGAGAGAGAGAGAGAGAGAUCUACCCAUCCGAAUUGAUUUAGGUGCCCAUUGCAUCUUUUGUACUAUGGAGUUGUUUACAGUAAGCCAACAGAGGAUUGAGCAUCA,2.37
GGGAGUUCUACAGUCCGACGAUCCUCUCUCCAUACCAUCAGUUUCUCAGUUCCAGAAGUUAUACCUUUAUUUUGAGCUGUGUACCGGCCGAAUAAAAAAUUCCUUUCAUAUCGUUAUUGUACAAAAAGUAAAGAGUAUCCUAACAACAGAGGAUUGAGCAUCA,0.346
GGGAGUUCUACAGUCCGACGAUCGGGUCAGCUGCCGCCACUUCUAAUCCUCAUCAUGACAACGUCAGGUAUGGCAUUUCAAACCCCGAUGCAGCCAUUGAAGGAGCUUCAGAUGACAUGACUGUGGUAGAUGCAGCUUCAUUACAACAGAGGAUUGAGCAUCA,0.122
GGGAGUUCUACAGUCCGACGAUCUUCACCGAAGUUGCAAUUGGCCCAUCCGUGCUCAAUGCUGCCAGAGAUGAUAUUAGCAAGCUCCGGAAUACACUUCGCUUUCUUUUGGGAAAUGUGGCUGAUUUCAACCCAGAAACAGAUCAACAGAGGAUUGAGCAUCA,0.187
